Measured values gathered from unrelated publications.
Parts stem from different laboratories: compare values within a part only.

Sample 1 — method: protein binding microarray; form: double-stranded DNA, one strand shown; matrix: in vitro; tested at: not given; baseline: not given; direction: higher = stronger binding
Target: Histone acetyltransferase KAT6A, both winged helices, GST fusion (KAT6A, Homo sapiens, UniProt Q92794, residues 1-181)
Setting: 8-mer, flanks averaged, mean of 2 arrays, mostly near background
Residues (chain): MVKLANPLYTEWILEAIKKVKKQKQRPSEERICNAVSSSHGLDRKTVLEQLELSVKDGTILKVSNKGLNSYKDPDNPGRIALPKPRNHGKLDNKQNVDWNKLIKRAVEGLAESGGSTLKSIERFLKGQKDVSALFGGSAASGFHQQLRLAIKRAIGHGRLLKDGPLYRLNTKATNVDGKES
| Oligonucleotide | E-score |
| --- | --- |
| ATACGCTG | 0.106 |
| AGTCAAAC | -0.0255 |
| TAACCATA | -0.0277 |
| AGACCCGG | 0.205 |
| AAGATCGT | 0.0763 |
| ATACAAAA | -0.0751 |
| CAGCGTGG | 0.128 |
| CGAAGTCC | 0.132 |
| AGACGTCG | 0.0745 |
| AGTGATGG | -0.157 |
| AAGGGTGT | -0.108 |
| CTCTAATA | -0.0836 |
| GTCAGGGA | -0.112 |
| CCACCCAA | -0.193 |
| CTATGGGA | -0.066 |
| CGGTGGCC | 0.09 |

Sample 2 — method: universal PBM; form: double-stranded DNA, one strand shown; matrix: in vitro; tested at: not given; direction: higher = stronger binding
Target: Sal-like protein 4, full length isoform B (SALL4, Homo sapiens, UniProt Q9UJQ4-2, residues 1-616)
Setting: 8-mer, flanks averaged, mean of replicates
| Oligonucleotide | E-score |
| --- | --- |
| GCAGGTAA | 0.096 |
| GTATCCAA | 0.0655 |
| CCGATTCC | -0.247 |
| ATCGCGGC | -0.172 |
| AGCGGCAC | -0.287 |
| CGGTCACC | -0.331 |
| GCACCTTA | 0.00723 |
| GTAGGGTA | 0.159 |
| AATAGCTC | 0.027 |
| AGAGCACA | -0.175 |
| TGTTACAA | 0.198 |
| AAGTCTAG | 0.0464 |
| AGAAAACA | 0.189 |
| AGCCGAAA | -0.0161 |
| CGAACACC | -0.261 |
| GTTTAGGA | -0.0955 |
| AGACTCCG | -0.137 |
| AGATGAGC | 0.0318 |
| AGGATTAA | 0.147 |
| CTGATGCC | -0.06 |
| CCTCATAA | 0.248 |
| CGAACTCA | -0.191 |

Sample 3 — method: RNA Bind-n-Seq; form: RNA; matrix: in vitro; tested at: not given; baseline: input RNA pool; direction: higher = stronger binding
Target: RING finger protein unkempt homolog, zinc fingers 1-6, GST-SBP tag (UNK, Homo sapiens, UniProt Q9C0B0, residues 30-357)
Sequence of UniProt Q9C0B0 (30-357, looked up): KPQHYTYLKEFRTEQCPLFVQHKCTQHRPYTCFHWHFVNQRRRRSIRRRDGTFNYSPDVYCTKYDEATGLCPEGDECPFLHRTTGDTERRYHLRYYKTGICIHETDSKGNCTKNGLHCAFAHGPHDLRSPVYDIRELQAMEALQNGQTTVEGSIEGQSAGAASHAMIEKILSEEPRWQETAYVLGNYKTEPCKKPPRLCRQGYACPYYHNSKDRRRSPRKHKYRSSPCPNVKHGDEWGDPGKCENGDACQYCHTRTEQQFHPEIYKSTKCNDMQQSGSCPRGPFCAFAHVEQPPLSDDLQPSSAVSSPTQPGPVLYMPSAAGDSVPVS
Setting: RNA with constant flanks, human and mouse sites, ends assumed
Shared flanks, not repeated: GGGAGUUCUACAGUCCGACGAUC … CAACAGAGGAUUGAGCAUCA
| Oligonucleotide | bound/input enrichment [ratio] |
| --- | --- |
| CCUCCAUCUCGGAGCUGUGGCUGCUGUGGCUGGCUCUGGCCUGCCAGUGCGUUAUAGCCCUUAGGCCUAUUGAACUUACUCUCUAAGAGAGGAUAGGACACCAGGAGAGGCUGCAGCCCU | 0.213 |
| GAUUACUUCAAAUUUGAUGUCUUUUAUUGCAUGAACAUUACGGAUAUUGAUGACAAGAUCAUCAAGAGGGCCCGGCAGAACCACCUGUUCGAGCAGUAUCGGGAGAAGAGGCCUGAAGCG | 0.217 |
| GGCCUGACAAAUUAUGCUGCAGCCUAUUGCACUGGCCUGCUGCUGGCCCGCAGGCUUCUGAAUAGGUUUGGCAUGGACAAGAUCUAUGAAGGCCAAGUGGAGGUGAAUGGAGGUGAAUAC | 0.146 |
| ACUGUAGAACAGCUUUAUGAAACAGCUUGCUUCCUACAGGUAGAAGAUGUGUUACAACGUUGUCGAGAAUAUUUAAUUAAAAAAAUAAAUGCAGAGAAUUGUGUACGAUUGUUGAGUUUU | 0.653 |
| GACAUGUUCCUGGAAGCUCUGGGAUACACUUGGCAUGAUACUUGCUUUGUGUGCUCUGUGUGUUGUGAAAGUUUGGAAGGGCAGACAUUUUUCUCCAAGAAGGACAAGCCACUUUGCAAA | 0.228 |
| CUCACCUUCCUCCGAAUGUCCACGCACAAGGAAUCCAAAGACCACUUCAUUUCUCCAUCUGCAUUUGGAGAAAUCCUCUACAACAACUUCCUCUUUGACAUCCCGAAGAUCCUGGACCUC | 0.208 |
| GAGUAACUCACCUCCAUGGGCUGACCAAAGGCUUUUCUAAUUUUUGUUACUGAUGAGAUGAAACCUAUUUGUAAGGAGAUCUUCCCCAGGAGCAUUUCUGUUGCCUUCUUGACAUCAAUG | 0.188 |
| CAUGCUUUGAAGCUGGACUCUUUUGGCCAGUUUAUUGAAUUAUUACCCAGCCUAGAGUUUAUUUCACUGGAUCAGAUGUUUCGUGAACCACCCAAGGGUUGUGCUCGAGUUGGUCUGAGU | 0.433 |
| GCCAUCUAUGAUAUCUGUCGUAGAAACCUCGACAUUGAGCGCCCAACCUACACUAACCUAAACAGGUUGAUAGGUCAAAUUGUGUCUUCCAUCACUGCUUCCCUCAGAUUUGAUGGGGCC | 0.135 |
| CCAGACAGCCCAUCCCCAGACCGAUUUGGGAUGUUGCCCCUGGAUGAGCCUGCUAUUCUUGUUAGUGAAUUCCUAGAUCGUUUUCAAAGCCUUUGUCACUUGGACCUCCAGCUUCCUUCC | 0.358 |
| AGGAAGAACUAUGCAUCUGCCUCUCUCUCUGAAUUCCUGUCUGAGGAAGUAGAAGCAGAAGUGAAAGCAGCUGCAGAGAUAUCUAUGGGAACAGAGGUUUCUGAAGAAGAUAUUUGCAAC | 0.206 |

Sample 4 — method: RNA Bind-n-Seq; form: RNA; matrix: in vitro; tested at: 365 nM; baseline: no-protein control; direction: higher = stronger binding
Target: RNA binding protein fox-1 homolog 2, RRM domain, GST-SBP tag (RBFOX2, Homo sapiens, UniProt O43251-10, residues 100-194)
Setting: natural RNA segment, single round, ends assumed
Shared flanks, not repeated: GGGAGUUCUACAGUCCGACGAUC … UGGAAUUCUCGGGUGCCAA
Residues (chain): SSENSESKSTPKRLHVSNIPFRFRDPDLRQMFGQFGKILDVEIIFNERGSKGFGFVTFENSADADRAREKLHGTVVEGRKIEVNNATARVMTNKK
| Oligonucleotide | RBNS enrichment (R) |
| --- | --- |
| GUCUAGCCCUGUGCACUUACCUCAGUACUCAGUACUUACUCAGUACUAACUCAGUACUCGUGGGAGGACACCCGACCCGGGUGUUCUUUGAGAAGCAGCUGAGUGAGGCA | 0.332 |
| GAGGGUGAUGGGUAAAGCAGUAGAGGGCCCUCAACCCACACACUGGCUGAAACUGCCACCAACUGCCACGAUGAACCCAACUGCUGUUUAUGCCCCCAUUUUCCUUUUUU | 0.713 |
| CCAUUGGUUUCUGGCCCUUUCAGGCUACAACCCCCCAGCCUUGCAGGUGUCAGAACAGUCUCACAAUGACAUCAGUUUAGACACAUGCCAUAUACACUUGGAUCUCUGAG | 0.312 |
| UAAUGUACUUAGGCAAGCCACUUCCCAUCUCUGGGCCUCGUCUUUCCUCCCUCUAAAAUCAAAGAGCUGAAUUAUGUGAUCCUUGAGGUCUCUUCCACUUAUAAUACCAA | 0.29 |
| CCUCUUGGAUACUCUGCCCAUUGAGUUCUCGGUGGUACCAGCUACAUGCCAGUUCCUGAGCAUCCUUUAUGUGCAUUUGCAUUCUCAGUGGUCCUGCCUGUAUGCUGGUU | 1.38 |
| AGAGAGUGUUUGUAGUUCAUGGUUUUUCCCUACCUGCCCGGUUCCUUUCCUGAGGACCCGGCAGAAAUGCAGAACCAUCCAUGGACUGUGAUUCUGAGGCUGCUGAGACU | 0.268 |
| AAAGGGAGCUAGCACCUCUCCAUCCCUUUCUCUUACUGCCAUUGGAAAUUAUUUUAGGGCUGAGAUAGGGGUGGAACGAGCAGGCUUGUUUCCACCAAUAGUGCCAAGAA | 0.366 |
| AGUUUUUAAUGGCCAUUGUGUAUGAUUUUGAUGCACAACUAGUUAAAAGCCUUUCAUACCAGUCAGUAUUCCCAGCCUUGAGCGCACGCGCGCACACACACACACACAUA | 0.756 |
| UGACGUGUCCAUUCUGAUAUAUGCAGUCAUUUUGAAUUUGGUCUGUGCCUUCUCUGGAUCCCUCCCUAGCCUGUGCCCCGAGCCGUCCAUAGAGAGUUUGUAGGUAUUUC | 1.11 |
| UCUGUUGGUUCCAAUAUUCUCCCACCUAGAGCUUCCUGUUAAAGCAAGUGCGAUCAGCAACAUUUUUCAACUUUCGCGCACUGUAAACCUAUUGCAUUCUUAGGCUACUG | 3.67 |
| AUUGUCAGUCUGUGUCACAUCCAGUGAUUGUUUUGGUUUCUGUUCCCUUUCUGACUGCCCAAGGGGCUCAGAACCCCAGCAAUCCCUUCCUUUCACUACCUUCUUUUUUG | 0.575 |
| CCUUUUUUCUCUCCUGCUCCAGGCCUCAGCUCCAGUCCGCUUCGGUUAUUGACCUCCUGGGUCCUACUCCACCCUAUCACCUACCCCCGUGACCCCCGGGAUCCCGCCGG | 1.07 |
